Results collected from several papers.
Several values in a cell are separate wells, animals, samples, runs or records. ± marks the error that the study gave.
Nuclear receptor subfamily 2 group C member 2 ligand-binding domain: Nuclear receptor subfamily 2 group C member 2, ligand-binding domain (Homo sapiens, UniProt P49116)
T1: ssRNA, single strand (Homo sapiens); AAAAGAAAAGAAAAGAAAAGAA

Compound = CCOc1ccc2ccccc2c1C(=O)N[C@@H]1C(=O)N2[C@@H]1SC(C)(C)[C@@H]2C(=O)O; tested on = Nuclear receptor subfamily 2 group C member 2 ligand-binding domain; test = SPR imaging; setting = 600 nM; measurement = koff; result = 8.88e-07 s⁻¹
Compound = O=C1OC(c2ccccc2)=N/C1=C\c1ccc(O)cc1; tested on = Pancreatic alpha-amylase (Homo sapiens, UniProt P04746); test = inhibitor, Lineweaver-Burk; setting = 300 ppm, together with: starch substrate; measurement = Vmax; result = 0.063 mg/mL/min
Compound = C[C@]12CC[C@@H]3c4ccc(O)cc4CC[C@H]3[C@@H]1C[C@@H](O)[C@@H]2O; tested on = Nuclear receptor subfamily 2 group C member 2 ligand-binding domain; test = SPR imaging; setting = 600 nM; measurement = koff; result = 3.32e-07 s⁻¹
Compound = CC(C)C[C@@H]1NC(=O)[C@H](C(C)C)NC(=O)CNC(=O)[C@H](CC(N)=O)NC(=O)[C@@H]2CCCN2C(=O)[C@H](Cc2ccc(O)cc2)NC(=O)[C@H](CCCNC(=N)N)NC(=O)[C@H](Cc2ccccc2)NC(=O)[C@@H](NC(=O)[C@H](CCCCN)NC(=O)[C@H](C)NC(=O)[C@H](CO)NC(=O)[C@H](C)NC(=O)[C@@H](N)Cc2ccc(O)cc2)CSSC[C@@H](C(=O)N[C@H](C(N)=O)[C@@H](C)O)NC(=O)[C@H](C)NC1=O; tested on = Alpha-2-HS-glycoprotein, asialo (AHSG, Bos taurus, UniProt P12763); test = binding, isothermal titration calorimetry; setting = pH 7.0, 25 °C, together with: asialofetuin; measurement = -ΔH; result = 2.38 kcal/mol
Compound = CC1=C(/C=C/C(C)=C/C=C/C(C)=C/C=O)C(C)(C)CCC1; tested on = Rhodopsin, I189A/S144C (RHO, Bos taurus, UniProt P02699, I189A/S144F); test = retinal entry, Alexa488 FRET; test system = lipid bicelles; setting = 28 °C, I189A mutant; scale = reference: wild-type rhodopsin; measurement = relative kon; result = 1.51 ± 0.28
Compound = Nc1nc2c(ncn2[C@@H]2O[C@H](COP(=O)(O)O)[C@@H](O)[C@H]2O)c(=O)[nH]1; tested on = GUK1 (Homo sapiens, UniProt Q16774, R44A); test = enzyme activity, NADH-coupled; setting = 62.5 µM; measurement = reaction rate; result = -0.534 s⁻¹ and -0.174 s⁻¹ and -0.0956 s⁻¹
Compound = O=C1c2ccccc2CCCN1CCCCN1CCN(c2ccccn2)CC1; tested on = HTR1A (Homo sapiens, UniProt P08908); test = radioligand binding; setting = concentration not given, together with: [3H]8-OH-DPAT; measurement = inhibition; result = 99%
Compound = Nc1ncnc2c1ncn2[C@@H]1O[C@H](COP(=O)(O)CP(=O)(O)OP(=O)(O)O)[C@@H](O)[C@H]1O; tested on = P2X purinoceptor 1 (P2RX1, Homo sapiens, UniProt P51575, K215A); test = calcium influx; setting = 31.6 nM; scale = reference: ionomycin response; measurement = calcium influx; result = 7.57% and 8.04% and 16.5%
Compound = COc1cccc(-c2ccc(NC(=O)C3=C(C(=O)O)CCC3)c(F)c2)c1; tested on = COS-7; setting = 3 µM, 24 h, 0.1% DMSO, unit not given; scale = reference: vehicle control; measurement = necrotic cells; result = 0.73 ± 0.19
Compound = CN(C)c1ccc(Nc2c3ccc(NC(=O)CCN4CCCC4)cc3nc3cc(NC(=O)CCN4CCCC4)ccc23)cc1; tested on = T1, ssRNA, single strand (Homo sapiens); test = 1H NMR peak broadening; measurement = binding; result = no binding
Compound = c1ccc(C(NCc2cccnc2)(c2ccccc2)c2ccccc2)cc1; tested on = KCNQ1 (Homo sapiens, UniProt P51787); test = whole-cell patch clamp; setting = 100 pM, repolarization to -120 mV; measurement = reactivating channels; result = 38 ± 22%
Compound = CC(Nc1nc(N2CCCC2)nc2ccccc12)c1ccccc1 (centres unmarked); tested on = Exportin-1 (XPO1, Homo sapiens, UniProt O14980); test = nuclear export, high content imaging; test system = HeLa Kyoto reporter; setting = 0.32 µM, 2 h; measurement = cells with nuclear reporter; result = 2.61% and 2.93% and 4.65%
Compound = CC[C@@H]1[C@H](F)C(=O)N[C@@H]1COc1nccc2cc(C(N)=O)c(OC)cc12; tested on = CAMK2G (Homo sapiens, UniProt Q13555); test = ATP-site probe binding, ActivX profiling; test system = THP-1 cell lysate; setting = 0.01 mM, Lys1 site; measurement = inhibition; result = -1%
Compound = CC(C)n1c(/C=C/C(O)CC(O)CC(=O)O)c(-c2ccc(F)cc2)c2ccccc21 (centres unmarked); tested on = COS-7; test = WST-8; setting = 10 µM, 24 h, 0.1% DMSO, unit not given; scale = reference: vehicle control; measurement = metabolic activity; result = 0.54 ± 0.42
Compound = Cc1cccc(N2CC(C(=O)O)CC2=O)c1 (centres unmarked); tested on = Coatomer subunit beta', WD repeat domain (Homo sapiens, UniProt P35606); test = binding, affinity selection mass spectrometry; scale = reference: other proteins in batch; measurement = fold enrichment; result = 1.06
Compound = O=C(O)C1CCCNC1 (centres unmarked); tested on = SLC6A6 (Homo sapiens, UniProt P31641, G62A); test = binding, microscale thermophoresis; setting = 125 µM, room temperature, together with: 50 nM labelled protein; scale = higher = more binding; measurement = normalised MST signal; result = 0.0087
Compound = O=C(COP(=O)(O)O)[C@@H](O)[C@H](O)[C@H](O)COP(=O)(O)O; tested on = Desmoplakin (DSP, Homo sapiens, UniProt P15924); test = thermal proteome profiling; test system = HepG2 cell lysate; setting = concentration not given, 57 over 37 °C; scale = reference: compound over control; measurement = thermal stability ratio; result = 0.467 and 0.444 and 0.7

Some of these lines once more:
Compound = CN(C)c1ccc(Nc2c3ccc(NC(=O)CCN4CCCC4)cc3nc3cc(NC(=O)CCN4CCCC4)ccc23)cc1; tested on = T1, ssRNA, single strand (Homo sapiens); test = 1H NMR peak broadening; measurement = binding; result = no binding
Compound = c1ccc(C(NCc2cccnc2)(c2ccccc2)c2ccccc2)cc1; tested on = KCNQ1 (Homo sapiens, UniProt P51787); test = whole-cell patch clamp; setting = 100 pM, repolarization to -120 mV; measurement = reactivating channels; result = 38 ± 22%
Compound = CC(Nc1nc(N2CCCC2)nc2ccccc12)c1ccccc1 (centres unmarked); tested on = Exportin-1 (XPO1, Homo sapiens, UniProt O14980); test = nuclear export, high content imaging; test system = HeLa Kyoto reporter; setting = 0.32 µM, 2 h; measurement = cells with nuclear reporter; result = 2.61% and 2.93% and 4.65%
